Earlier results as cited in several papers.
Numbers after ± are the reported error.
Sequence of UniProt P53341 (whole entry, looked up): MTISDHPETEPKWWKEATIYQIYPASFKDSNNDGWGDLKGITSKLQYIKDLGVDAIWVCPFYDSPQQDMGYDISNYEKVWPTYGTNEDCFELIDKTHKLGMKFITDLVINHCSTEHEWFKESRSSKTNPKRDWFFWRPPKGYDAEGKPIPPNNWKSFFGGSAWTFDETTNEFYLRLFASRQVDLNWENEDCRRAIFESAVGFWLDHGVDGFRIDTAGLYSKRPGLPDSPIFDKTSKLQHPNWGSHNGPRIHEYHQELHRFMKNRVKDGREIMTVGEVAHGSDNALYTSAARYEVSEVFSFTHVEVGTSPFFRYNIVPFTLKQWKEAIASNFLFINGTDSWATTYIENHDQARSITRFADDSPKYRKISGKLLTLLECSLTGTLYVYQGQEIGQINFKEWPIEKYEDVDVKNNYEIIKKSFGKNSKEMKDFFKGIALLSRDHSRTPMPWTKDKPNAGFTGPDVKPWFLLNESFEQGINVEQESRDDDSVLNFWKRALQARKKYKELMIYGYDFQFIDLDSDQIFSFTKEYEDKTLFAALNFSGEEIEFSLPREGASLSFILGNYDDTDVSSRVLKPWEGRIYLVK
Sequence of UniProt Q9Y251 (whole entry, looked up): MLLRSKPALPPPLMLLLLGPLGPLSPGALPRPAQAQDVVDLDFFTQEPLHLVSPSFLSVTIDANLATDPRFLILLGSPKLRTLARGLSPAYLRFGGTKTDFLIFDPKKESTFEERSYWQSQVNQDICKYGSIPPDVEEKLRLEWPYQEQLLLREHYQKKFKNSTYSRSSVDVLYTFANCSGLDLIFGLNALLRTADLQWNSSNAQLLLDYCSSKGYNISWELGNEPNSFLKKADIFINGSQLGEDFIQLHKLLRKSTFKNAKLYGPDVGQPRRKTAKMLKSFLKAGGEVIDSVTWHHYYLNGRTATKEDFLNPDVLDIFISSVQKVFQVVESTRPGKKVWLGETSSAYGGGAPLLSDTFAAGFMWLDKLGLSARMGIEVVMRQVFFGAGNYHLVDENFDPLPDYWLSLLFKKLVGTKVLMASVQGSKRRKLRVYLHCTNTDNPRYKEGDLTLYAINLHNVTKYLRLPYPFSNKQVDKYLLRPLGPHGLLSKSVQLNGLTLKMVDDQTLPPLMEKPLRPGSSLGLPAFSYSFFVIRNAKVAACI
Sequence of UniProt Q9NTG7 (whole entry, looked up): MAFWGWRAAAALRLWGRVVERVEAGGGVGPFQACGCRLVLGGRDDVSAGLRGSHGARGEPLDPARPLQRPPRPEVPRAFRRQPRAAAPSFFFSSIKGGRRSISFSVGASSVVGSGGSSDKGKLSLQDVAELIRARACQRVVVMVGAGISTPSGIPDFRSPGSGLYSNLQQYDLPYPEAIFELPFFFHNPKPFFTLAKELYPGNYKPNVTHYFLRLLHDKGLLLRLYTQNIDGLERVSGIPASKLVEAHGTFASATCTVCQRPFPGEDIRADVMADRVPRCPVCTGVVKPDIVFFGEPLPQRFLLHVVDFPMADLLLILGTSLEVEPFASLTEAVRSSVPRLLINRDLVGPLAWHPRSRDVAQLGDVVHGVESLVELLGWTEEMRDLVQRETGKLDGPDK
Sequence of UniProt P35968 (whole entry, looked up): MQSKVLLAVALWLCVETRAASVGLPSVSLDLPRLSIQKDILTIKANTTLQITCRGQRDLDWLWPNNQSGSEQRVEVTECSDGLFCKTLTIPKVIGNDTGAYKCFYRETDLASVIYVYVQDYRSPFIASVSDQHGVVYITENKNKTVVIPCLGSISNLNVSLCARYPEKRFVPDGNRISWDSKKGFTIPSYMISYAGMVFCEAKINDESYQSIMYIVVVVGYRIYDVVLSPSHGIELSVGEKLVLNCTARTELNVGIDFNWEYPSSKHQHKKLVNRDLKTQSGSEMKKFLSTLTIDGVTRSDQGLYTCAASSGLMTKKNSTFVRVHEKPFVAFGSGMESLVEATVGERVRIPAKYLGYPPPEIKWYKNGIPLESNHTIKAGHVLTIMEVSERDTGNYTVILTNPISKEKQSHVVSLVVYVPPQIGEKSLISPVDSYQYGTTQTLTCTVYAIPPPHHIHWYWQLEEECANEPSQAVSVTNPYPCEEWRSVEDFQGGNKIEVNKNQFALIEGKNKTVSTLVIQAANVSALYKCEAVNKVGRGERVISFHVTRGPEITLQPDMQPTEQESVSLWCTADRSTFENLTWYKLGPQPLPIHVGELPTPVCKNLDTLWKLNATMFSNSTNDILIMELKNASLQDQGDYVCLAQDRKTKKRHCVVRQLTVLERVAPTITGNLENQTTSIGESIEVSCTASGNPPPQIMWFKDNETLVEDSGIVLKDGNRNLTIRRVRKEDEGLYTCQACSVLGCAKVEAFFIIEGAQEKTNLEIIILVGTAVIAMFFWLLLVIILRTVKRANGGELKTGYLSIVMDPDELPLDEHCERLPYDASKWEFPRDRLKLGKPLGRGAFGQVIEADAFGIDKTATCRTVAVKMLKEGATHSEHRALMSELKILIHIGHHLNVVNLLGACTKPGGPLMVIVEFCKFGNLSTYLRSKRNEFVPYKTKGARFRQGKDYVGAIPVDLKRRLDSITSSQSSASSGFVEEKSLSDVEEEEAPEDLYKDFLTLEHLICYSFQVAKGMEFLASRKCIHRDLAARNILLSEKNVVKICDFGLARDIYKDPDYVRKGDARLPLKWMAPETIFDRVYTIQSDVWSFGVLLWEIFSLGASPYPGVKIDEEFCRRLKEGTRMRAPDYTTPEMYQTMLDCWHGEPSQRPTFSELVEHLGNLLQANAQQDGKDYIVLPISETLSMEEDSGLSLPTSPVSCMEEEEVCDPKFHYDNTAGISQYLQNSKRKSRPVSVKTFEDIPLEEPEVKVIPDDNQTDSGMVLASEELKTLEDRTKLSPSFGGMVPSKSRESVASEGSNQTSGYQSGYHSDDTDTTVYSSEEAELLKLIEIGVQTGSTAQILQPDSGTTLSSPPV
Sequence of UniProt P53779 (whole entry, looked up): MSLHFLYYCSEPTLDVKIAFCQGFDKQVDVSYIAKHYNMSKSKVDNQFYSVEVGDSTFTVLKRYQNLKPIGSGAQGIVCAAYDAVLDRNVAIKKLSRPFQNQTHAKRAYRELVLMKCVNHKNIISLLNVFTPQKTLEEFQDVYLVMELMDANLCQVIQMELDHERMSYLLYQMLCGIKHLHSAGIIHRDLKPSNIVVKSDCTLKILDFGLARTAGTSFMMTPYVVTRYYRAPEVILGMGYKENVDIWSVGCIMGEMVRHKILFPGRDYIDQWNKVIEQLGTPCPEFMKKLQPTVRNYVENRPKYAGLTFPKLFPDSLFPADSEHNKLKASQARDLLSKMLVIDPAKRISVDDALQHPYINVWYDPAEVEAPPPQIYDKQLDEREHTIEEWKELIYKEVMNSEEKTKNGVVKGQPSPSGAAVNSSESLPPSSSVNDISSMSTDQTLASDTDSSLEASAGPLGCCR
Sequence of UniProt P21741 (whole entry, looked up): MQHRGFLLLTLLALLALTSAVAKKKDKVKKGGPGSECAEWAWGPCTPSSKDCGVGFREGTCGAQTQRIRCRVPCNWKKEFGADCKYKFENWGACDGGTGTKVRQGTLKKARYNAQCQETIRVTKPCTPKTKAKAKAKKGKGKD

N=C(N)NCCC[C@H](NC(=O)[C@H](CSSC[C@H](NC(=O)[C@H](Cc1ccc(O)cc1)NC(=O)[C@H](Cc1c[nH]c2ccccc12)NC(=O)[C@H](CCCNC(=N)N)NC(=O)[C@@H](N)Cc1c[nH]c2ccccc12)C(=O)N[C@@H](CCCNC(=N)N)C(N)=O)NC(=O)[C@H](Cc1ccc(O)cc1)NC(=O)[C@H](Cc1c[nH]c2ccccc12)NC(=O)[C@H](CCCNC(=N)N)NC(=O)[C@@H](N)Cc1c[nH]c2ccccc12)C(N)=O (single isomer, unassigned)  IC50 (phage lambda integrase; excision, inhibitor; with DTT, dimer equivalents): 250 nM
O=C(Nc1cnn(-c2cccc(C(=O)Nc3cnn(C4CCNC4)c3)c2)c1)Nc1ccccc1Cl (stereo not shown)  IC50 (Mitogen-activated protein kinase 10 (MAPK10, Homo sapiens, UniProt P53779); inhibitor): < 1 nM
CCCCCCCCCCCCCC(=S)NCCCC[C@H](NC(=O)c1ccc(C(=O)c2ccc(OC/C=C/CN=[N+]=[N-])cc2)cc1)C(=O)N[C@@H](C)C(=O)N[C@@H](C)C(=O)OC  IC50 (NAD-dependent protein deacetylase sirtuin-3, mitochondrial (SIRT3, Homo sapiens, UniProt Q9NTG7); deacetylase activity, inhibitor, HPLC; together with: H3K9ac substrate): 303000 ± 52500 nM
C[C@@H](c1cc(OCC(F)F)ccn1)n1cnc2c(N)nc(Cl)nc21  IC50 (cGMP-specific 3',5'-cyclic phosphodiesterase, catalytic domain 535-860 (PDE5A, Homo sapiens, UniProt O76074); enzyme activity): > 10000 nM
NC(=O)CCN(NC(=O)[C@H](Cc1ccccc1)NC(=O)OCc1ccccc1)C(=O)CBr  IC50 (human rhinovirus 3C protease; enzyme activity, inhibitor): ~48 nM
C[C@@H]1COCCN1c1nc(-c2cnc(N)nc2)nc2c1C[C@@H]1COCCN21  IC50 (Akt pSer473; phosphorylation, inhibitor; A2058): 77 ± 6.8 nM
Clc1ccccc1Cn1cc(CSc2nc(-c3ccccc3)c(-c3ccccc3)[nH]2)nn1  IC50 (Alpha-glucosidase MAL12 (MAL12, Saccharomyces cerevisiae S288c, UniProt P53341); enzyme activity, inhibitor): 85600 ± 400 nM
C/C(=N\Nc1ccccc1)c1ccc(NC(=O)c2cccnc2)cc1  IC50 (Vascular endothelial growth factor receptor 2 (KDR, Homo sapiens, UniProt P35968); kinase activity, inhibitor): 24.9 nM
O=C(O)[C@@H]1[C@@H](O)[C@H](O)[C@@H](O)[C@@H]2O[C@@H]21  IC50 (Heparanase (HPSE, Homo sapiens, UniProt Q9Y251); inhibitor, competitive ABPP): > 100000 nM
COc1cc2ncnc(Nc3ccc(Oc4ccccc4)cc3)c2cc1OC  IC50 (Src kinase; enzyme activity, inhibitor): 44 to 88 nM
CC(C)C(NC(=O)[C@@H](N)c1ccccc1)C(=O)NCc1cc(=O)c(O)c[nH]1 (stereo partly shown)  IC50 (tyrosinase; diphenolase activity, inhibitor): 2790 nM
O=C(CSC(=S)Nc1cccc([N+](=O)[O-])c1)c1cc2ccccc2oc1=O  IC50 (alpha-glucosidase): 102000 ± 4700 nM
CCC1SCC(=O)N1c1c(C#N)c2n(c1C(=O)Nc1ccccc1)CCC2 (stereo not shown)  IC50 (CDK2; enzyme activity, inhibitor): 630 nM
OC[C@H](OCc1ccccc1)[C@H](O)C[S@@+]1C[C@@H](O)[C@H](O)[C@H]1CO  IC50 (rat intestinal maltase; maltase activity, inhibitor; rat intestinal disaccharidases): 320 nM
COc1ccc(O[C@@H]2O[C@H](COS(=O)(=O)O)[C@H](OS(=O)(=O)O)[C@H](O[C@@H]3O[C@H](C(=O)O)[C@@H](O[C@@H]4O[C@H](COS(=O)(=O)O)[C@H](OS(=O)(=O)O)[C@H](O[C@@H]5O[C@H](C(=O)O)[C@@H](OS(=O)(=O)O)[C@H](OCc6ccccc6)[C@H]5OS(=O)(=O)O)[C@H]4NC(C)=O)[C@H](OCc4ccccc4)[C@H]3OS(=O)(=O)O)[C@H]2NC(C)=O)cc1  IC50 (Midkine (Homo sapiens, UniProt P21741); binding to tetrasaccharide): 5300 nM
O=C(N=C1NCCN1c1ccc([N+](=O)[O-])cc1)Nc1ccccc1  IC50 (Cyclin-dependent kinase 2 (CDK2, Homo sapiens, UniProt P24941)): 14300 nM
